Values quoted from earlier work, collected from citations in different studies.
Numbered parts are unrelated; values within a part may stem from several laboratories.

Sample 1 — organism: Cryptosporidium parvum; technique: high-throughput screen; concentration: concentration not given
| SMILES | activity |
| --- | --- |
| NC(=O)c1cnccn1 | inactive |
| O=C1CN(/N=C/c2ccc(-c3ccc([N+](=O)[O-])cc3)o2)C(O)=N1 | inactive |
| C[C@]12C[C@H](O)[C@H]3[C@@H](CCC4=CC(=O)CC[C@@]43C)[C@@H]1CC[C@@H]2C(=O)CO | inactive |

Other studies, line by line
| SMILES | target or system | test | test system | setting | measurement | value |
| --- | --- | --- | --- | --- | --- | --- |
| CS(=O)(=O)NCC[C@H](NC(=O)c1cncc2c1cnn2-c1ccc(F)cc1)c1ccnc(S(C)(=O)=O)c1 | CCR1 | biochemical | – | – | IC50 | > 3000 nM |
| F[C@@H]1CCN(c2ccc(-c3ccc4sc(-c5cccnc5)cc4n3)cn2)C1 | alpha-synuclein | binding | – | – | Kd | 9 nM |
| COc1cccc(NC(=O)c2nc3scc(CN(C)Cc4ccccc4)c3c(=O)[nH]2)c1 | MMP13 (human) | enzyme activity | – | – | IC50 | 39 nM |
| CCC1=C(CC)/C(=C/NC23CC4CC(CC(C4)C2)C3)N=C1c1ccc[nH]1 | – | – | human liver microsomes | – | t1/2 | > 1 h |
| CO[C@@H](C)c1c(Nc2ccc([C@@H](N(C)C(=O)C3CCS(=O)(=O)CC3)C(F)(F)F)cc2)cnc2cc(Cl)nn12 | human MALT1 | biochemical | – | high salt | IC50 | 190 nM |
| O=C(Nc1ccc(-n2nc(-c3cccnc3)cc2C(F)(F)F)cn1)c1ccc(-c2ccccc2)c(F)c1 | EPHX2 | biochemical activity | – | – | IC50 | > 3000 nM |

A few entries again (other studies, line by line):
| SMILES | target or system | test | test system | setting | measurement | value |
| --- | --- | --- | --- | --- | --- | --- |
| CO[C@@H](C)c1c(Nc2ccc([C@@H](N(C)C(=O)C3CCS(=O)(=O)CC3)C(F)(F)F)cc2)cnc2cc(Cl)nn12 | human MALT1 | biochemical | – | high salt | IC50 | 190 nM |
